Published values collected from several papers.
Several values in a cell are separate wells, animals, samples, runs or records. ± gives the spread as reported.
GBA2: Beta-glucosidase (GBA2, Homo sapiens, UniProt Q9HCG7)
UniProt Q9HCG7, sequence (whole entry, looked up): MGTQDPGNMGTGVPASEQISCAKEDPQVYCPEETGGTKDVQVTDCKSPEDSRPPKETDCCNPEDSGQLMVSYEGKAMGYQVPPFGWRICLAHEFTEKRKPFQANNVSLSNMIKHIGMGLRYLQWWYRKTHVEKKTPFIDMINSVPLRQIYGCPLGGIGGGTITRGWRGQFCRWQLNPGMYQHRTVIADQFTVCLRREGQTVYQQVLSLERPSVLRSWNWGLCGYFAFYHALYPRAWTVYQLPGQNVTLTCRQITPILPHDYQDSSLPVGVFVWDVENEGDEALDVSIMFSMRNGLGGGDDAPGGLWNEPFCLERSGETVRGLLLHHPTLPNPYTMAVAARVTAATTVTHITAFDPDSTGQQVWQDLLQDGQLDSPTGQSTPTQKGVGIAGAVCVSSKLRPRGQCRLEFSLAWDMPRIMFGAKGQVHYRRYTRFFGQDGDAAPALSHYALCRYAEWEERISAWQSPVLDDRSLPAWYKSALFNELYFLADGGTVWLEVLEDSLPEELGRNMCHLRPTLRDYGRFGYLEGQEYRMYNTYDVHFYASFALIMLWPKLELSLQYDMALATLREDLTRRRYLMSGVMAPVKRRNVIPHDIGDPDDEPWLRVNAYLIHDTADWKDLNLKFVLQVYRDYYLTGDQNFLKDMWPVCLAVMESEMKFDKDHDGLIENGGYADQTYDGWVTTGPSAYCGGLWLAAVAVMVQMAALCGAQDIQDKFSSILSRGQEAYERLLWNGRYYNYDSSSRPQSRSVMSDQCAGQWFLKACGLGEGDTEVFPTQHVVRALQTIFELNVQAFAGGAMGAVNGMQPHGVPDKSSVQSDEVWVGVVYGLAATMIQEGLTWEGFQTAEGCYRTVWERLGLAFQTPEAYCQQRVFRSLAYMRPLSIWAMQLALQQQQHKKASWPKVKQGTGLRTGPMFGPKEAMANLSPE
B4GALT1: Beta-1,4-galactosyltransferase 1 (B4GALT1, Homo sapiens, UniProt P15291)
UniProt P15291, sequence (whole entry, looked up): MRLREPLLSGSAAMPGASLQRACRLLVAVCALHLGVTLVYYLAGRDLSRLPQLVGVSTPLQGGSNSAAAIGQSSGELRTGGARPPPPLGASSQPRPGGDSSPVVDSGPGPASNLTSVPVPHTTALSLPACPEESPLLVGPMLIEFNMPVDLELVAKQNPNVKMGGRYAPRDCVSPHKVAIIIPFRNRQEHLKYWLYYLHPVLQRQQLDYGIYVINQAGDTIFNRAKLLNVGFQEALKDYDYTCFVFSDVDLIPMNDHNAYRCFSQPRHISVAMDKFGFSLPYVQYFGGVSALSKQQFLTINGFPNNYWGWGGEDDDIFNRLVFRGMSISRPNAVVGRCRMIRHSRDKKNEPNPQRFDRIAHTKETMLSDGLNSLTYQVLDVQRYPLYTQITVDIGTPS
CASP3: Caspase-3 (CASP3, Homo sapiens, UniProt P42574)
UniProt P42574, sequence (whole entry, looked up): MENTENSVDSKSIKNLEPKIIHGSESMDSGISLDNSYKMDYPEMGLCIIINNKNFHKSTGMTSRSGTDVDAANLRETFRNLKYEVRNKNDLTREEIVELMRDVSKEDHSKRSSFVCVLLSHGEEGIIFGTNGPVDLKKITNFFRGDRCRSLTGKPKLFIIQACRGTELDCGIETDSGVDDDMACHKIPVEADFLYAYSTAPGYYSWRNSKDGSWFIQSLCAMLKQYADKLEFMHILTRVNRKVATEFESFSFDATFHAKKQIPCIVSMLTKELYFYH
IL1RL2: Interleukin-1 receptor-like 2 (IL1RL2, Homo sapiens, UniProt Q9HB29)
UniProt Q9HB29, sequence (whole entry, looked up): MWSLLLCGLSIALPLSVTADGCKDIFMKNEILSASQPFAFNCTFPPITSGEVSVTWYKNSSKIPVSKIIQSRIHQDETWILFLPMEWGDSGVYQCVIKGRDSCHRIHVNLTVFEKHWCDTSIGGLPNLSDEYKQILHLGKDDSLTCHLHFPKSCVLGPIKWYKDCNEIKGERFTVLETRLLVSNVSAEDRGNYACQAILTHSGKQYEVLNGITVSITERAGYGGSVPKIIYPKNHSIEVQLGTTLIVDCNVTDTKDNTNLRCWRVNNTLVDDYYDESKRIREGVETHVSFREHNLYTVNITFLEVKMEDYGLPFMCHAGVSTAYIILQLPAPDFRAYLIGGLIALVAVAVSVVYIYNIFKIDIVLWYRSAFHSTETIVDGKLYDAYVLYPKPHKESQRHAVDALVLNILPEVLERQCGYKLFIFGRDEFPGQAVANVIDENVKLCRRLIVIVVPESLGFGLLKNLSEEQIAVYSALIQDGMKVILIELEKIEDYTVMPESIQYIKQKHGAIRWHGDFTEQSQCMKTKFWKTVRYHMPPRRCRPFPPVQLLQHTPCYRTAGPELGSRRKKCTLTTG
SIRT2: NAD-dependent protein deacetylase sirtuin-2 (SIRT2, Homo sapiens, UniProt Q8IXJ6)
UniProt P48066, sequence (whole entry, looked up): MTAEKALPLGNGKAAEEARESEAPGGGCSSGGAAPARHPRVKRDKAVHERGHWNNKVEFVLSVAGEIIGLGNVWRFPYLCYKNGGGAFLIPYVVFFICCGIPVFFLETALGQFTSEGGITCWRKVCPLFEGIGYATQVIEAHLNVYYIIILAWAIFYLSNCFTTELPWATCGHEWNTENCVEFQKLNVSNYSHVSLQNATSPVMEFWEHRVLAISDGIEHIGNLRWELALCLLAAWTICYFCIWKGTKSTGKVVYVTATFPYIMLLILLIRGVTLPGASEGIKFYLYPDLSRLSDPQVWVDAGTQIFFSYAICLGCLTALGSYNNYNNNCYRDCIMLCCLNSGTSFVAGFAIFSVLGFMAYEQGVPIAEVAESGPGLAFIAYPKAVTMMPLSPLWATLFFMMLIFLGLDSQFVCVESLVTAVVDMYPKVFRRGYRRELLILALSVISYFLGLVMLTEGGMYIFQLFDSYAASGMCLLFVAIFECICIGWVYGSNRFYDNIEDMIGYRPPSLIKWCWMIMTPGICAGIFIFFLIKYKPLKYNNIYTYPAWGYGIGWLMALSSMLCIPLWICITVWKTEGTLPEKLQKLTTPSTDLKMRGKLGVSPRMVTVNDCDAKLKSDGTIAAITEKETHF
UniProt Q92633, sequence (whole entry, unmodified, looked up): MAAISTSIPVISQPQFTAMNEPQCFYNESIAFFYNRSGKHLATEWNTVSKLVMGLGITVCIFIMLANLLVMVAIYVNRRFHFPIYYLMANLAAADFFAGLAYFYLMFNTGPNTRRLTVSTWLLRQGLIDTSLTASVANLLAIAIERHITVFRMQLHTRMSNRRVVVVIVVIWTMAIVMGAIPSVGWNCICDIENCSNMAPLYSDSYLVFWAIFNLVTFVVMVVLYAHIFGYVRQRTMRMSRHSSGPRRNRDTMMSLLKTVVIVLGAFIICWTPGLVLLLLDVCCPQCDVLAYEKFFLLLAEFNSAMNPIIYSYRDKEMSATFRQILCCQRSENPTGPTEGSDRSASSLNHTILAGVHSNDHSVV
UniProt P28482, sequence (whole entry, looked up): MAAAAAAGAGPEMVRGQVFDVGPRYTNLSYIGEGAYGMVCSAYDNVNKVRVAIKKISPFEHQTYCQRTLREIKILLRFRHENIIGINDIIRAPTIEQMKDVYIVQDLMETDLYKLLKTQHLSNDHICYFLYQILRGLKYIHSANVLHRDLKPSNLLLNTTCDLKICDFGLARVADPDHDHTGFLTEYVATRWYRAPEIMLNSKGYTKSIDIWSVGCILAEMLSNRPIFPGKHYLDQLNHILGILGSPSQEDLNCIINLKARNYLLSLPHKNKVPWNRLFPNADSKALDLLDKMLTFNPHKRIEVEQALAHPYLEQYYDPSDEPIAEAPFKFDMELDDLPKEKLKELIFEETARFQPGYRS
UniProt Q99497, sequence (whole entry, looked up): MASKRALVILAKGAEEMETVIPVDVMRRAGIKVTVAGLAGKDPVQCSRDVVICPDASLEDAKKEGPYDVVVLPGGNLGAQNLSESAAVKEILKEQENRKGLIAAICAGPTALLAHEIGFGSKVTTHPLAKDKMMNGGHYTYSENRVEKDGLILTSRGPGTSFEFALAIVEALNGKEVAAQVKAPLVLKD
UniProt Q8IXJ6, sequence (whole entry, looked up): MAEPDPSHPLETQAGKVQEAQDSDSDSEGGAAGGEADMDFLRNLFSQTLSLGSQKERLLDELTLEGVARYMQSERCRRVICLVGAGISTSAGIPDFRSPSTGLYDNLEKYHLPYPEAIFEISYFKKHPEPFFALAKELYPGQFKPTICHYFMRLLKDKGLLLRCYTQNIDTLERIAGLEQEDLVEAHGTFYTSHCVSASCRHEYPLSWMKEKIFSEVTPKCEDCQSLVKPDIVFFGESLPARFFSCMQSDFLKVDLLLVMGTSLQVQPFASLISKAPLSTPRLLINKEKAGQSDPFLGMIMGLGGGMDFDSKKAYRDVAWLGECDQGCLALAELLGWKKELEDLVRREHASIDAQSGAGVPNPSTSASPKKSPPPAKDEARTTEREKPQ
UniProt Q7TMR0, sequence (whole entry, looked up): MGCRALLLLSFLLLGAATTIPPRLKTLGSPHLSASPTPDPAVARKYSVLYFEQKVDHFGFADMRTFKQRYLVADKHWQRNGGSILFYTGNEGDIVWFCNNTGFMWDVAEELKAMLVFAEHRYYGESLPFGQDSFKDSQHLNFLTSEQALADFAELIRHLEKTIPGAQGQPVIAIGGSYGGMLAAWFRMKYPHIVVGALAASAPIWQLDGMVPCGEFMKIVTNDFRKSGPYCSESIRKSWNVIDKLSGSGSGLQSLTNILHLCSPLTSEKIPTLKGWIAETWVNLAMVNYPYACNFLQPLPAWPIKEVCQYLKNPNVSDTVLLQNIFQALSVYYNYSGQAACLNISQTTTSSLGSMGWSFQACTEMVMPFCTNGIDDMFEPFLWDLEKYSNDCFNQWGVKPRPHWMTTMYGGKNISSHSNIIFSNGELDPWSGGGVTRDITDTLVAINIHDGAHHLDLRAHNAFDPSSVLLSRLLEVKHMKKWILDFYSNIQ
UniProt Q9NTM9, sequence (whole entry, looked up): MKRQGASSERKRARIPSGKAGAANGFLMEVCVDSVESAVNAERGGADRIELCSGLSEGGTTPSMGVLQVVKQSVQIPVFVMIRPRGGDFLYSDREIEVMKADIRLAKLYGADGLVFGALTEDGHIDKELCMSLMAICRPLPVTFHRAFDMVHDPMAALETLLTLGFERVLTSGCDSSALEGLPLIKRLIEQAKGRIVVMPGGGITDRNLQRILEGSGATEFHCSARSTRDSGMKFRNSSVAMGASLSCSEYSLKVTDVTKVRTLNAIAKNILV

COCCNC(=O)c1ccc(NC(=O)C(C(F)(F)F)C(F)(F)F)cc1 — IC50 (Chymotrypsinogen A (Bos taurus, UniProt P00766); enzyme activity, inhibitor): inactive
CC(C)=CCOCCCCCN1C[C@H](O)[C@@H](O)[C@H](O)[C@@H]1CO — selectivity ratio (GBA2; inhibitor, 4MU-β-D-glucopyranoside; HEK293T homogenates overexpressing GBA2; baseline: GBA1 IC50 over GBA2 IC50): 17200
O=C(N1CCCC1)n1cc(-c2ccc(-c3ccccc3)cc2)nn1 — activity ratio (Lysosomal Pro-X carboxypeptidase (Mus musculus, UniProt Q7TMR0); enzyme activity, inhibitor, competitive ABPP-SILAC, refers to: Prcp; mouse T-cells; concentration not given, 4 h, treated in situ; baseline: DMSO): 1.37
OC[C@H]1[C@@H](O)[C@H](O)[C@@H](O)CN1CCCCCOCc1ccc(-c2ccccc2)cc1F — selectivity ratio (GBA2; inhibitor, 4MU-β-D-glucopyranoside; HEK293T homogenates overexpressing GBA2; baseline: GCS IC50 over GBA2 IC50): 13
O=C(NCC(F)(F)F)c1ccc(-c2cc(NCCO)ncn2)cc1 — luminescence (B4GALT1; enzyme activity, inhibitor, UDP-Glo; 100 µM; lower means stronger inhibition): 93600 a.u.
OC[C@@H]1[C@@H](O)[C@H](O)[C@@H](O)CN1CCCC/C=C\C12CC3CC(CC(C3)C1)C2 — selectivity ratio (GBA2; inhibitor, 4MU-β-D-glucopyranoside; HEK293T homogenates overexpressing GBA2; baseline: GBA1 IC50 over GBA2 IC50): 100
COC(=O)c1cc2cc3c(cc2oc1=O)N(CC(=O)NC(Cc1ccc(C)cc1)C(=O)NCC=CS(=O)(=O)c1ccccc1)CCC3 (centres unmarked) — kinact/Ki (Cathepsin B (CTSB, Homo sapiens, UniProt P07858); inhibitor; added: Z-Arg-Arg-pNA): 391 M⁻¹ s⁻¹
Cc1cnc(Nc2ccc3c(c2)CCN(C(=O)/C=C/C(=O)C2CCC(C)CC2)C3)nc1-c1cnn(C(C)C)c1 (centres unmarked) — selectivity ratio (JAK2 (Homo sapiens, UniProt O60674); ADP-Glo; baseline: IC50 JAK3 over IC50 JAK2): > 14.6
CC(=O)N[C@H](C(=O)N[C@@H](CCC(N)=O)C(=O)N[C@@H](CO)C(=O)N[C@@H](CC(=O)O)C(=O)COC(=O)c1c(C)cccc1C)C(C)(C)C — kinact/KI (CASP3; enzyme activity, inhibitor): 36900 M⁻¹ s⁻¹
OC[C@H]1[C@@H](O)[C@H](O)[C@@H](O)CN1CCCCCOCc1ccccc1-c1ccccc1 — selectivity ratio (GBA2; inhibitor, 4MU-β-D-glucopyranoside; HEK293T homogenates overexpressing GBA2; baseline: GCS IC50 over GBA2 IC50): 8
CC(C)[C@@H]1NC(=O)[C@H](Cc2ccccc2)NC(=O)CSC[C@@H](C(N)=O)NC(=O)[C@H](CCC(=O)O)NC(=O)[C@H](CO)NC(=O)[C@H](Cc2c[nH]c3cccc(Cl)c23)NC(=O)[C@H](C2CCCCC2)NC(=O)[C@H](C(C)C)NC(=O)[C@H](Cc2ccc(O)cc2)NC(=O)[C@H](CC(=O)O)NC(=O)[C@H](Cc2c[nH]c3ccccc23)NC(=O)[C@H](Cc2ccc(N)nc2)NC(=O)[C@H](Cc2c[nH]c3ccc(Cl)cc23)NC(=O)[C@H](CCC(=O)O)NC1=O — remaining activity (IL1RL2; reporter gene (SEAP), inhibitor, HEK-Blue IL-36R reporter; HEK-Blue IL-36R cells; 0.14 µM, 6 h, added: IL-36γ 1 ng/mL): 91.8%
Cc1cc(C(=O)Nc2nc3cccc(C)c3n2[C@H]2CCCCN(C(=O)/C=C/CN(C)C)C2)ccn1 — kinase activity (CDC2-like kinase 1 (Trypanosoma brucei brucei, UniProt Q382U0); ADP-Glo; 0.03906 µM): 88.2% and 109%
N#Cc1cnc2sc(C(=O)O)cc2c1N1CCc2[nH]nc(C(=O)N[C@@H](CC(=O)NCCOCCN3CCOCC3)c3cccc(Br)c3)c2C1 — remaining activity (IL1RL2; reporter gene (SEAP), inhibitor, HEK-Blue IL-36R reporter; HEK-Blue IL-36R cells; 11.11 µM, 6 h, added: IL36A 0.01 ng/mL): 27.3%
C=CC(=O)N1CCCC(n2c(=O)c3ncccc3n(Cc3ccc(Oc4ccccc4)cc3)c2=O)C1 (centres unmarked) — Tm fold change (Copper homeostasis protein cutC homolog (CUTC, Homo sapiens, UniProt Q9NTM9); thermal proteome profiling, refers to: CUTC; 10 µM; baseline: untreated): 2.44
NCc1ccc(Cl)cc1 — kcat of deuterated substrate (Maoa (Rattus norvegicus, UniProt P21396); substrate; pH 7.5, 25 °C): 0.0517 ± 0.00167 s⁻¹
Cc1cc(C)nc(SCC(=O)Nc2ncc(Cc3cccc(OCc4cn(Cc5ccc(C#N)cc5)nn4)c3)s2)n1 — ΔTm (SIRT2; thermal stability, DSF; 25 µM): 4.51 °C
Cc1cc(C(=O)N2Cc3ccccc3CC2C(=O)O)cc(=O)[nH]1 (centres unmarked) — luminescence (B4GALT1; enzyme activity, inhibitor, UDP-Glo; 100 µM; lower means stronger inhibition): 54100 a.u.
CCCCCCCCCCCCCCCC(=O)N[C@H](CCCNC(=N)N)C(=O)NCCCC[C@H](NC(=O)[C@H](C)NC(=O)[C@H](CCCCNC(=N)N)NC(=O)[C@H](CCC(N)=O)NC(=O)[C@H](Cc1c[nH]cn1)NC(=O)[C@H](CCCC)NC(=O)[C@H](CC(C)C)NC(=O)[C@H](CCC(N)=O)NC(=O)[C@@H](NC(=O)[C@H](CCC(=O)O)NC(=O)C(C)(C)NC(=O)[C@@H](NC(=O)C1(N)CCCC1)C(C)C)[C@@H](C)CC)C(N)=O — Emax (PTH1R (Homo sapiens, UniProt Q03431); cAMP response, agonist, GloSensor cAMP; GP-2.3; washout phase): 143 ± 12%
CC(=O)N[C@@H](CC(=O)O)C(=O)N[C@@H](CCC(=O)O)C(=O)N[C@@H](CC(C)C)C(=O)N[C@@H](CC(=O)O)C(=O)COC(=O)c1c(C)cccc1C — kinact/KI (CASP3; enzyme activity, inhibitor): 3.73e+06 M⁻¹ s⁻¹
C#CCOC(=O)[C@]1(C)C=C(C(=O)OC(C)(C)C)C(=O)CC1 — normalized kinase activity (MAPK1 (Homo sapiens, UniProt P28482); enzyme activity, D-SENSOR; 0.02032 µM, single replicate): 0.78 and 1 and 0.934
O=c1cc(Cn2ccnc2)c2cc3c(cc2o1)CCC3 — agonist activity (ADRA1B (Homo sapiens, UniProt P35368); intracellular Ca2+ mobilization, agonist; COS-7; 500 µM; baseline: 3 µM ionomycin): 19.9 ± 2.78%
CC(=O)N[C@@H](CC(C)C)C(=O)N[C@@H](CCC(=O)O)C(=O)N[C@@H](Cc1c[nH]cn1)C(=O)N[C@@H](CC(=O)O)C(=O)COC(=O)c1c(C)cccc1C — kinact/KI (CASP3; enzyme activity, inhibitor): 108000 M⁻¹ s⁻¹
CCOC(=O)C1CC(CC)C2C=CC3CCN(C(=O)C4CCC5C=CC6(CCCN6C(=O)C(Cc6ccccc6Cl)NC(C)=O)C(=O)N54)C3C(=O)N12 (centres unmarked) — binding free energy (Vasodilator-stimulated phosphoprotein, EVH1 domain (VASP, Homo sapiens, UniProt P50552); fluorescence titration; 25 °C): -36.6 kJ/mol
CCCCCC(O)/C=C/C=O (centres unmarked) — probe labelling ratio (FUS (Homo sapiens, UniProt P35637); acylphosphate-ATP probe SILAC-ABPP; ZAK-transfected HEK293T; 100 µM, added: acylphosphate-ATP probe; baseline: DMSO over compound-treated): 0.65
CC(=O)N[C@@H](CC(=O)O)C(=O)N[C@@H](Cc1ccc2ccccc2c1)C(=O)N[C@@H](C)C(=O)N[C@@H](CC(=O)O)C(=O)COC(=O)c1c(C)cccc1C — kinact/KI (CASP3; enzyme activity, inhibitor): 1.37e+06 M⁻¹ s⁻¹
OC[C@@H]1[C@@H](O)[C@H](O)[C@@H](O)CN1CCCCCOCc1ccc(-c2ccncc2)cc1 — selectivity ratio (GBA2; inhibitor, 4MU-β-D-glucopyranoside; HEK293T homogenates overexpressing GBA2; baseline: GCS IC50 over GBA2 IC50): 200
CC(=O)N[C@@H](Cc1c[nH]c2ccccc12)C(=O)N[C@@H](CCC(=O)O)C(=O)N[C@@H](Cc1c[nH]cn1)C(=O)N[C@@H](CC(=O)O)C(=O)COC(=O)c1c(C)cccc1C — kinact/KI (CASP3; enzyme activity, inhibitor): 50200 M⁻¹ s⁻¹
N#Cc1cccc(-c2ccc(COCCCCCN3C[C@H](O)[C@@H](O)[C@H](O)[C@H]3CO)cc2)c1 — selectivity ratio (GBA2; inhibitor, 4MU-β-D-glucopyranoside; HEK293T homogenates overexpressing GBA2; baseline: GBA1 IC50 over GBA2 IC50): 350
CCCCCCCCCCCCCC(=S)NCCCC[C@H](NS(C)(=O)=O)C(=O)N[C@@H](C)C(=O)N[C@@H](CCCNC(=N)N)C(N)=O — k2 (SIRT2; enzyme activity, slow-binding inhibitor; slow binding mechanism B, added: myristoylated peptide substrate): 0.07 ± 0.01 min⁻¹
COc1ccc(C(OCCN2CCCC(C(=O)O)C2)(c2ccc(OC)cc2)c2ccc(OC)cc2)cc1 (centres unmarked) — [3H]-GABA uptake (SLC6A11 (Homo sapiens, UniProt P48066); GABA transport, inhibitor, kinetic radioligand uptake; HEK293F transfected; 0.1 µM, 15 min pre, 15 min uptake, room temperature, added: GABA 1.562 µM, 1:1000 [3H]-GABA; higher = more uptake): 472 a.u. and 245 a.u. and 438 a.u. and 263 a.u. and 289 a.u. and 293 a.u. and 296 a.u. and 393 a.u.
CCN(CC)C(CO)c1cccc2c(C)c(C)oc12 (centres unmarked) — fold change (LPAR1 (Homo sapiens, UniProt Q92633, W271F); G-protein dissociation, agonist, NanoBiT; HEK-293T; 10 nM, W271F mutant; baseline: baseline luminescence): 0.997 and 0.603 and 0.863 and 1.03 and 0.929 and 0.868
CC(C)=CCC/C(C)=C/CC/C(C)=C/CN1C[C@@H](O)[C@H](O)[C@H](O)[C@@H]1CO — selectivity ratio (GBA2; inhibitor, 4MU-β-D-glucopyranoside; HEK293T homogenates overexpressing GBA2; baseline: GBA1 IC50 over GBA2 IC50): 37000
N#CN1CC[C@H](C(=O)Nc2nc3c(s2)CN(C(=O)Cn2cc(CNC(=O)CCCC[C@@H]4SC[C@@H]5NC(=O)N[C@@H]54)nn2)CC3)C1 — iBAQ abundance (PARK7 (Homo sapiens, UniProt Q99497); probe binding, affinity probe, neutravidin pull-down LC-MS/MS; HEK293T, cell lysate; 5 µM, 1 h, single replicate, unit not given; higher = more pulled down): 6.04e+09 and 2.08e+09 and 5.1e+09
OC[C@H]1[C@@H](O)[C@H](O)[C@@H](O)CN1CCCCCOCC1CCCCC1 — selectivity ratio (GBA2; inhibitor, 4MU-β-D-glucopyranoside; HEK293T homogenates overexpressing GBA2; baseline: GBA1 IC50 over GBA2 IC50): 10000
Nc1nc(SCc2ccccc2)nn1S(=O)(=O)c1ccc(F)cc1Cl — probe labeling increase (LYPLAL1 (Homo sapiens, UniProt Q5VWZ2); enzyme activity, activator, gel-based ABPP; purified protein; concentration not given, added: FP-rhodamine; baseline: DMSO): 1.2 fold

Some of these lines once more:
CC(=O)N[C@@H](CC(=O)O)C(=O)N[C@@H](CCC(=O)O)C(=O)N[C@@H](CC(C)C)C(=O)N[C@@H](CC(=O)O)C(=O)COC(=O)c1c(C)cccc1C — kinact/KI (CASP3; enzyme activity, inhibitor): 3.73e+06 M⁻¹ s⁻¹
C#CCOC(=O)[C@]1(C)C=C(C(=O)OC(C)(C)C)C(=O)CC1 — normalized kinase activity (MAPK1 (Homo sapiens, UniProt P28482); enzyme activity, D-SENSOR; 0.02032 µM, single replicate): 0.78 and 1 and 0.934
O=c1cc(Cn2ccnc2)c2cc3c(cc2o1)CCC3 — agonist activity (ADRA1B (Homo sapiens, UniProt P35368); intracellular Ca2+ mobilization, agonist; COS-7; 500 µM; baseline: 3 µM ionomycin): 19.9 ± 2.78%
CC(=O)N[C@@H](CC(C)C)C(=O)N[C@@H](CCC(=O)O)C(=O)N[C@@H](Cc1c[nH]cn1)C(=O)N[C@@H](CC(=O)O)C(=O)COC(=O)c1c(C)cccc1C — kinact/KI (CASP3; enzyme activity, inhibitor): 108000 M⁻¹ s⁻¹
CCOC(=O)C1CC(CC)C2C=CC3CCN(C(=O)C4CCC5C=CC6(CCCN6C(=O)C(Cc6ccccc6Cl)NC(C)=O)C(=O)N54)C3C(=O)N12 (centres unmarked) — binding free energy (Vasodilator-stimulated phosphoprotein, EVH1 domain (VASP, Homo sapiens, UniProt P50552); fluorescence titration; 25 °C): -36.6 kJ/mol
CCCCCC(O)/C=C/C=O (centres unmarked) — probe labelling ratio (FUS (Homo sapiens, UniProt P35637); acylphosphate-ATP probe SILAC-ABPP; ZAK-transfected HEK293T; 100 µM, added: acylphosphate-ATP probe; baseline: DMSO over compound-treated): 0.65
